Measurements collected from several papers.
Each numbered part is a random draw from the data of one study; scales do not carry over between parts.

Study 1
Cell line: mouse MPNST tumor cells
Technique: high-content immunofluorescence imaging
Item: nuclear SOX9
Tested at: 10 µM
Time: 12 h
Setting: mean of 2 replicates
Relative to: DMSO control
Reading: higher = more nuclear SOX9
Endpoint: nuclear SOX9 intensity
SMILES = CCCCCC[C@H]1C(=O)O[C@H](C)[C@H](NC(=O)c2cccc(NC=O)c2O)C(=O)O[C@@H](C)[C@@H]1OC(=O)CC(C)C; value = 99.4 % of DMSO
SMILES = COc1cc([C@@H]2c3cc4c(cc3[C@H](O)[C@H]3COC(=O)[C@H]23)OCO4)cc(OC)c1OC; value = 231 % of DMSO
SMILES = Cc1ncc(CN2CC=C(c3ccccc3)CC2)c(N)n1; value = 91.8 % of DMSO
SMILES = CCC1(C)CC(=O)NC(=O)C1; value = 103 % of DMSO

Study 2
Target: Sodium-dependent dopamine transporter (SLC6A3, Homo sapiens, UniProt Q01959)
Sequence of UniProt Q01959 (whole entry, looked up): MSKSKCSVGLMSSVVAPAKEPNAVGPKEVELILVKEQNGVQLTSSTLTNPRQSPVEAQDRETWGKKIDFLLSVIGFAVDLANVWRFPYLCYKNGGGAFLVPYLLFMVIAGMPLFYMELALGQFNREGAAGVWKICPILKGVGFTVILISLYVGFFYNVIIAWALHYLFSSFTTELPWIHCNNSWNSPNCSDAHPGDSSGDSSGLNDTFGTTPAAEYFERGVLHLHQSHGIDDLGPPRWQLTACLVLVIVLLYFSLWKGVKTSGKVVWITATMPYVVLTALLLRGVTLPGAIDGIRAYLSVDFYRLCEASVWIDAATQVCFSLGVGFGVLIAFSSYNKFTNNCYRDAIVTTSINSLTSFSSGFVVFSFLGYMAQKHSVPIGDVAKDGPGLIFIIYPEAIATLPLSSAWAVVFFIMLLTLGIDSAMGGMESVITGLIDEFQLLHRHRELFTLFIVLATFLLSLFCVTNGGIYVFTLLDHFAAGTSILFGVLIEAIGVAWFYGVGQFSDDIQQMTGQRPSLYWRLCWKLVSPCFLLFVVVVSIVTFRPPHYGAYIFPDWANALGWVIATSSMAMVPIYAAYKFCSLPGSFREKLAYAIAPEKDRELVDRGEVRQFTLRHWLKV
Effect on: binding
Technique: radioligand binding
Tested at: 10 µM
Endpoint: inhibition
SMILES = CS(=O)(=O)NCC[C@H](NC(=O)c1cncc2c1cnn2-c1ccc(F)cc1)c1ccnc(S(C)(=O)=O)c1; value = 25.3%
SMILES = C[C@H](NC(=O)c1cnc2n1[C@](C)(Cc1ccc(C#N)cc1)C(=O)N2c1cc(Cl)c(F)c(Cl)c1)C(=O)NC1(c2ccccn2)CC1; value = -14.8%
SMILES = c1ccc(C2CCN(c3cnc4c(N5CCOCC5)nccn34)CC2)cc1; value = 85.9%
SMILES = CCOCCn1cc(C(=O)Nc2ccc(-n3nc(-c4cccnc4)cc3C(F)(F)F)cn2)ccc1=O; value = 82.1%
SMILES = O=C(Nc1cnc(Oc2ccc(F)cc2)nc1)N1CCc2ncccc2[C@@H]1c1ccc(F)cc1; value = -39.3%
SMILES = O=C(Nc1cccnn1)N1CCC(=Cc2cccc(Oc3ccc(C(F)(F)F)cn3)c2)CC1; value = -30.3%
SMILES = O=C(O)c1cc(-c2ccc(C3CCNCC3)cc2)c2ccc(-c3ccc(C(F)(F)F)cc3)cc2c1; value = 37.7%
SMILES = Cc1cc(-n2nc(Cc3cc(F)cc(C(F)(F)F)c3)nc2C)ccc1C(N)=O; value = 7.33%
SMILES = CCCOc1ccc([C@H]2[C@H](C(=O)O)[C@@H](c3ccc4c(c3)OCO4)CN2CC(=O)Nc2c(CC)cccc2CC)cc1; value = -20.1%
SMILES = O=C(Nc1cccnn1)N1CC(CC=Cc2cncc(Oc3ccc(C(F)(F)F)cn3)n2)C1; value = -12.4%
SMILES = CC[C@H](CC(=O)O)n1c(=O)c2ncccc2n(Cc2cn(C)c3cc(C)cc(C)c23)c1=O; value = -18.2%
SMILES = O=C(NC[C@@H]1[C@H]2CN(C(=O)OCc3cc(C(F)(F)F)cc(C(F)(F)F)c3)C[C@@H]12)c1ccc2[nH]nnc2c1; value = -2.65%
SMILES = O[C@]1(C(F)(F)F)CCCC[C@H]1Nc1ccc(F)cc1; value = 56.5%
SMILES = Cc1c(NC(=O)c2cc(C(N)=O)nc3cc(F)ccc23)c(C(F)(F)F)nn1Cc1ccc(C(C)(C)C)cc1; value = 14.7%
SMILES = CN1C(=O)[C@@H](N2CCc3c(nn(Cc4ccccc4)c3Br)C2=O)COc2ccccc21; value = -8.33%
SMILES = CNC(=O)c1cc(C(=O)NC2CC2)cn(Cc2ccccc2)c1=O; value = -18.4%
SMILES = CC(=O)Nc1nc(CN2CCC[C@H](Cc3cc(C)nc(C)c3)C2)cs1; value = 81.9%
SMILES = CN1C(=O)[C@@H](N2CCc3cn(Cc4ccccc4)nc3C2=O)COc2ccccc21; value = -11.5%
SMILES = CC(=O)Nc1c(F)cc(C(=O)N[C@H]2CC[C@H](O)CC2)cc1O[C@@H](C)c1ccccc1; value = 3.3%
SMILES = CC(=O)c1c(NS(C)(=O)=O)c2cc(-c3ccc(Cl)cc3)c(-c3ccc(Cl)cc3Cl)nc2n(C)c1=O; value = 67.1%
SMILES = CNC(=O)c1ccc(Nc2ncc(C(F)(F)F)c(NCc3nccnc3N(C)S(C)(=O)=O)n2)cc1; value = -6.06%
SMILES = Cc1c(N2CCCC2)nc2ccc(Br)cc2c1C(=O)NC[C@H](CCC(=O)O)c1ccccc1Cl; value = -12.3%
SMILES = O=C([C@H]1C[C@H](O)CN1c1ccc(Cl)cc1)N1CC2COCC(C1)N2Cc1ccc(Cl)cc1; value = -27%
SMILES = O=C1CCc2cc(Nc3cc(OC4CCOCC4)c([N+](=O)[O-])cc3Cl)ccc2N1; value = 13.6%
SMILES = Cc1nc(Cc2cccc(C(F)(F)F)c2)sc1-c1ccc(C(N)=O)nc1; value = -18.9%

Study 3
Cell line: HEK-293T/ACE2
Time: 17.5 h
Endpoint: CC50
Compound = CN1CCN(CCCN2c3ccccc3Sc3ccc(S(=O)(=O)N(C)C)cc32)CC1; value = 51.7 µM
Compound = CCSc1ccc2c(c1)N(CCCN1CCN(C)CC1)c1ccccc1S2; value = 34.4 µM
Compound = COc1ccc2c(c1)N(CCCN(C)C)c1ccccc1S2; value = 58.1 µM
Compound = CCN(CC)C(C)CN1c2ccccc2Sc2ccccc21 (stereo not shown); value = 80.8 µM
Compound = CN1CCCC(CN2c3ccccc3Sc3ccccc32)C1 (stereo not shown); value = 57 µM
Compound = CN(C)CCCN1c2ccccc2Sc2ccc(Cl)cc21; value = 26.6 µM
Compound = CCN(CC)CCN1c2ccccc2Sc2ccccc21; value = > 100 µM
Compound = CC(CN1c2ccccc2Sc2ccccc21)N(C)C (stereo not shown); value = 67 µM

Study 4
Target: Diamine acetyltransferase 1 (Homo sapiens, UniProt P21673)
Mode: inhibitor
Tested at: 10 µM
Relative to: control
Endpoint: remaining activity
Residues (P21673 1-171): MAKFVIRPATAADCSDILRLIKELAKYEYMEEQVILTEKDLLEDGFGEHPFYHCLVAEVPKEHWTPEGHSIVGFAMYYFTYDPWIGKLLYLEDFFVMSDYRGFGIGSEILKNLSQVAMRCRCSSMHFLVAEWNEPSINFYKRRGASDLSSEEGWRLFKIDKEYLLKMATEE
SMILES = O=C1c2ccccc2C(=O)c2ccccc21; value = 88.5%
SMILES = O=C/C=C/c1ccccc1; value = 83.4%
SMILES = Oc1cc(O)cc(/C=C/c2ccc(O)cc2O)c1; value = 98.1%
SMILES = COc1ccc(C(=O)O)cc1OC; value = 91%

Study 5
Target: Calcium/calmodulin-dependent protein kinase type II subunit alpha (CAMK2A, Homo sapiens, UniProt Q9UQM7)
Sequence of UniProt Q9UQM7 (whole entry, looked up): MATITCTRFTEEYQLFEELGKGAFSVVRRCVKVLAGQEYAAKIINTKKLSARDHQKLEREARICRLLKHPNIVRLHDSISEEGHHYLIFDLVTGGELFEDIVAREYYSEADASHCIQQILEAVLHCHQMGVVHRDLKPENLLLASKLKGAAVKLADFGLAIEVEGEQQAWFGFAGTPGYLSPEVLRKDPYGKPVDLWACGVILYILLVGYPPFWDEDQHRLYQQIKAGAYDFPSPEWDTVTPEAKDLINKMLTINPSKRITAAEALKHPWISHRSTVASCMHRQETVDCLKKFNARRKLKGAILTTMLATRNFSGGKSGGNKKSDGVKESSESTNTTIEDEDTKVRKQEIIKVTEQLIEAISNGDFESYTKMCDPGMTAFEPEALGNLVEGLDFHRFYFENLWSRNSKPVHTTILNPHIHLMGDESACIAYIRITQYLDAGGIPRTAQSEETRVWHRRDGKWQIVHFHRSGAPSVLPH
Effect on: enzyme activity
Mode: inhibitor
Tested at: 10 µM
Endpoint: inhibition
Structure (SMILES) = COC(=O)C[C@](O)(CCC(C)(C)O)C(=O)O[C@@H]1C(OC)=C[C@]23CCCN2CCc2cc4c(cc2[C@H]13)OCO4; value = -7%
Structure (SMILES) = CC(O)(CS(=O)(=O)c1ccc(F)cc1)C(=O)Nc1ccc(C#N)c(C(F)(F)F)c1 (stereo not shown); value = -9%
Structure (SMILES) = O=c1[nH]c2ccccc2n1CCCN1CCC(n2c(=O)[nH]c3cc(Cl)ccc32)CC1; value = 1%
Structure (SMILES) = Cc1ccc2c(c1)[C@]13CCCC[C@@H]1[C@H](C2)N(C)CC3; value = -3%
Structure (SMILES) = Cn1cnc(CCN)c1; value = -14%
Structure (SMILES) = OCC1=C[C@H](N[C@H]2C[C@H](CO)[C@@H](O[C@@H]3O[C@H](CO)[C@@H](O)[C@H](O)[C@H]3O)[C@H](O)[C@H]2O)[C@H](O)[C@@H](O)[C@@H]1O; value = 5%

Study 6
Organism: Sarcocystis neurona
Effect on: parasite growth
Tested at: 10 µM
Time: 96 h
Relative to: untreated
Endpoint: log2 fold change
SMILES = O=C(O)C(Cl)Cl; value = 0.27
SMILES = O=C(c1ccc(F)cc1)C1CCN(CCn2c(=S)[nH]c3ccccc3c2=O)CC1; value = -3.32
SMILES = CN1C(=O)CN=C(c2ccccc2)c2cc(Cl)ccc21; value = -1.47
SMILES = c1ccc2c(c1)Nc1ccccc1S2; value = 0.46
SMILES = Oc1c(Cl)cc(Cl)c(Cl)c1Cc1c(O)c(Cl)cc(Cl)c1Cl; value = -2.52

For quick reference, copied from above (study 4):
SMILES = Oc1cc(O)cc(/C=C/c2ccc(O)cc2O)c1; value = 98.1%
SMILES = COc1ccc(C(=O)O)cc1OC; value = 91%
SMILES = O=C1c2ccccc2C(=O)c2ccccc21; value = 88.5%
SMILES = O=C/C=C/c1ccccc1; value = 83.4%
